# Results of several laboratories.
# Lines come from different studies, so protocols differ. ± gives the spread as reported.
Structure (SMILES),organism,assay,system,setting,IC50
Nc1nc(-c2ccccc2)nc2[nH]nc(Nc3ccc(F)cc3)c12,coxsackievirus B3,"plaque formation, plaque reduction","HeLa, Nancy, resistant mutant S2209C",,32500 ± 4590 nM
O=C(/C=C/CF)O[C@@H]1COC(=O)C1,Vibrio harveyi,"quorum sensing bioluminescence, inhibitor",BB120,,168000 nM
O=[N+]([O-])c1ccc(/C=N/N=C/c2ccc(Br)cc2)o1,Trypanosoma evansi,"parasite growth, CellTiter-Glo",Tansui bloodstream form,72 h,1150 ± 160 nM
CC(=O)O[C@@H]1C[C@@H](C)O[C@H]2O[C@@H]3C[C@@H]4CC[C@@H]5[C@H](CC[C@]6(C)[C@@H](C7=CC(=O)OC7)CC[C@]56O)[C@@]4(C)C[C@H]3O[C@]21O,Schistosoma mansoni,microscopic viability score,adult worms,72 h,138 nM
CC1N=C(CCCCCCCCCCC2=CC(CCCCCCCCCCC3=NC(C)C(O)CC3)C3CCCN3C2)CCC1O (stereo not shown),Cryptococcus neoformans,microbial growth,ATCC90113,,0.66 µg/mL
CC(=O)O[C@@H]1C[C@@H](C)O[C@H]2O[C@@H]3C[C@@H]4CC[C@@H]5[C@H](CC[C@]6(C)[C@@H](C7=CC(=O)OC7)CC[C@]56O)[C@@]4(C=O)C[C@H]3O[C@]21O,Schistosoma mansoni,microscopic viability score,adult worms,72 h,335 nM
O=C(/C=C/CCl)OC1CCOC1=O (racemic),Vibrio harveyi,"quorum sensing bioluminescence, inhibitor",BB120,,15900 nM
O=C(O)[C@H](CNCCCCCCCCCCCCCc1cccnc1)c1ccccc1,Hepatitis C virus,"viral replication, inhibitor, luciferase",,replicon,15.6 µg/mL
CC(C)=CCNCCOC1C2CC3CC(C2)CC1C3 (stereo not shown),Saccharomyces cerevisiae,microbial growth,,,25 µg/mL
N=C(NO)NN=Cc1cccnc1,Human alphaherpesvirus 1,plaque formation,Vero,96 h,> 100000 nM
O=C(C1CCN(c2nnnn2-c2ccccc2)CC1)N1CCCc2ccccc21,Plasmodium falciparum,[3H]hypoxanthine incorporation,K1,72 h,620 nM
CC(=O)OC[C@H]1O[C@@H](NC(=O)NC(=O)[C@@H](C)Cc2ccc(C(C)C)cc2)[C@H](OC(C)=O)[C@@H](OC(C)=O)[C@@H]1OC(C)=O,Punta Toro virus,cytopathic effect,Vero,,100000 nM
CC(=O)CCC1C(=O)NC(C(C)C)C(=O)NC(Cc2cccc(O)c2)C(=O)N2CCCC(N2)C(=O)OC(C(C)=CC=CC(=O)N2CCCCO2)CC=CC=CC(O)C(C)C1O (stereo not shown),Human immunodeficiency virus 1,"viral replication, flow cytometry",HeLa,48 h,310 nM

# Repeated from above:
Structure (SMILES),organism,assay,system,setting,IC50
Nc1nc(-c2ccccc2)nc2[nH]nc(Nc3ccc(F)cc3)c12,coxsackievirus B3,"plaque formation, plaque reduction","HeLa, Nancy, resistant mutant S2209C",,32500 ± 4590 nM
O=C(/C=C/CF)O[C@@H]1COC(=O)C1,Vibrio harveyi,"quorum sensing bioluminescence, inhibitor",BB120,,168000 nM
